Measurements from different studies.
Compare with care: the assays were run in different laboratories. ± marks the error that the study gave.
UniProt P06239, sequence (whole entry, looked up): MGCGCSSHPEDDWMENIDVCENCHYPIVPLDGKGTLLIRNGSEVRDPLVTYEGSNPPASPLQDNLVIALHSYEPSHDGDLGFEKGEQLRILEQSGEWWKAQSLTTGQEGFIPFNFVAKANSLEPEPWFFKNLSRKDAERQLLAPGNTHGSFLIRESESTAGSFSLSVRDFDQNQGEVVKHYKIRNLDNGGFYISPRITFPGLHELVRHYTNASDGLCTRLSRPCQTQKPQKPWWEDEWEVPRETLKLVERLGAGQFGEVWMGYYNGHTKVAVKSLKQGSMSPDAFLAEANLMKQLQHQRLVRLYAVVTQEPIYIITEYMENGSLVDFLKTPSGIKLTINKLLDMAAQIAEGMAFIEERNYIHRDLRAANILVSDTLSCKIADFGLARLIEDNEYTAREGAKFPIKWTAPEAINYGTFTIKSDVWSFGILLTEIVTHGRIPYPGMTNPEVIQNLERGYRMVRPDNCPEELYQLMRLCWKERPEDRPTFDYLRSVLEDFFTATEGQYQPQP
UniProt Q15831, sequence (whole entry, looked up): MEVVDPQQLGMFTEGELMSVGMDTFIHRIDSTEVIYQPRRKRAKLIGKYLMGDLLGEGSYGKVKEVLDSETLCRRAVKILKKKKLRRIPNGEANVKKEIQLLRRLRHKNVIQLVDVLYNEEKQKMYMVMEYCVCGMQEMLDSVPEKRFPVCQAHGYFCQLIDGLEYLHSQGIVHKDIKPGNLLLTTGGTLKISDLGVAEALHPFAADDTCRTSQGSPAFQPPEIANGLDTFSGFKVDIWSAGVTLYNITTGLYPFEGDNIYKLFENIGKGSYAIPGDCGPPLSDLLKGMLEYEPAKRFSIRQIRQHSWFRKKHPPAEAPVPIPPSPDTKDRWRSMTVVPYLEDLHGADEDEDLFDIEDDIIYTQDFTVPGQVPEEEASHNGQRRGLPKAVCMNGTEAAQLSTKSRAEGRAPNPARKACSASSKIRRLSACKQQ
UniProt P25025, sequence (whole entry, looked up): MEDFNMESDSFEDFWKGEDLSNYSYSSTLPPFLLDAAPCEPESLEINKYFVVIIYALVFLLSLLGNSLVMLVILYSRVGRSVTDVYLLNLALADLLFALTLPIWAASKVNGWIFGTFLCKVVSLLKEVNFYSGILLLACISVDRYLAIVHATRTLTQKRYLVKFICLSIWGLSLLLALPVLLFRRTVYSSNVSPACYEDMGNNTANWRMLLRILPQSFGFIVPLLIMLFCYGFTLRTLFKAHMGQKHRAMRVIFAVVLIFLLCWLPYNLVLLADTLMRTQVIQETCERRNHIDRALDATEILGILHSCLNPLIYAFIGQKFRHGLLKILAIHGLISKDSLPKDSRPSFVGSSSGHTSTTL
UniProt P16591, sequence (whole entry, looked up): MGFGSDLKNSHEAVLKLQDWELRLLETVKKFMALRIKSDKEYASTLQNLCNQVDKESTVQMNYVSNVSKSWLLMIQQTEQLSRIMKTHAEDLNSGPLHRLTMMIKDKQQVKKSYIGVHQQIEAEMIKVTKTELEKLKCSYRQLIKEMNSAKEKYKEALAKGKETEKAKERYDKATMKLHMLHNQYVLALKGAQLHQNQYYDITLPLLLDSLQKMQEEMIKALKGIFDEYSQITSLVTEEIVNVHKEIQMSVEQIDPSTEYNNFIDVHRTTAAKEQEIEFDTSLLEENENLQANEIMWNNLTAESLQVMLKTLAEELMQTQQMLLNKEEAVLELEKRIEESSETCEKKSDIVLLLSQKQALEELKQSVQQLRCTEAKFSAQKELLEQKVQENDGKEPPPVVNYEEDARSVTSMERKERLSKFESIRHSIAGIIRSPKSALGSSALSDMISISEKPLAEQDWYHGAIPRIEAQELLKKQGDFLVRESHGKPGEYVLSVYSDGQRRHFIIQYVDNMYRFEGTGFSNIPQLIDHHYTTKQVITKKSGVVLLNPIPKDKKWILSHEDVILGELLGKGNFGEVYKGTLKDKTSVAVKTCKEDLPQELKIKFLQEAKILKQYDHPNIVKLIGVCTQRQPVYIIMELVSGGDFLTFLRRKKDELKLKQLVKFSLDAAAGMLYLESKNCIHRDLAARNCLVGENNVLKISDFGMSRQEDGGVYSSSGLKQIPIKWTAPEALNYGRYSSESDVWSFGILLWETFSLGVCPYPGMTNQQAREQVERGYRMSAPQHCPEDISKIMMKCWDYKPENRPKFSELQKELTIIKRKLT
UniProt P47809, sequence (whole entry, looked up): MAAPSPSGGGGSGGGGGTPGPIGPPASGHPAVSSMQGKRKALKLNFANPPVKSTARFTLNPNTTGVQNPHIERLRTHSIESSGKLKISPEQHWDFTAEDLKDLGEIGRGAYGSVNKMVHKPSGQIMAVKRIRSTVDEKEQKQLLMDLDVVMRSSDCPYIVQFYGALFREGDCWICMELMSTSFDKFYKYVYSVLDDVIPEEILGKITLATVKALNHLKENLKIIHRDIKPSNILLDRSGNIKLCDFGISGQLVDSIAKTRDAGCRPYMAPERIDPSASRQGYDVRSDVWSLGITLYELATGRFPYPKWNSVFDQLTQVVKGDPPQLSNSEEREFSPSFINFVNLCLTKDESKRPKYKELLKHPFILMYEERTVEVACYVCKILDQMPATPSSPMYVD
UniProt P06276, sequence (whole entry, looked up): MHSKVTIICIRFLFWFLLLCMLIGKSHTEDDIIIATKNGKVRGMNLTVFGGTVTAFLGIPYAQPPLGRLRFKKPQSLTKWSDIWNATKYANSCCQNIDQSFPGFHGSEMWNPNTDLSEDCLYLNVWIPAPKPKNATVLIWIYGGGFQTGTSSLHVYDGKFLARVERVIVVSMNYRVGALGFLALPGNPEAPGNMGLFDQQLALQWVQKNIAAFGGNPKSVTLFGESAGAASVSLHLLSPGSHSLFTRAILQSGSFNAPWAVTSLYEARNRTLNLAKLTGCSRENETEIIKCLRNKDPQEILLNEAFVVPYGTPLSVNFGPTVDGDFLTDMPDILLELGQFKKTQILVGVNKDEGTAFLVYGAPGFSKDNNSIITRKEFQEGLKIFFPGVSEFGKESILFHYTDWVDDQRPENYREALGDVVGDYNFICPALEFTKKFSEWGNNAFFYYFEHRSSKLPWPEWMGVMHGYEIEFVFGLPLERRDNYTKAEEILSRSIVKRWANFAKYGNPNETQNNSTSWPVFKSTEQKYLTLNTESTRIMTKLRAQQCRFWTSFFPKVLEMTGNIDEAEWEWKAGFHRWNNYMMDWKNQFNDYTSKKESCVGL
UniProt P08588, sequence (whole entry, looked up): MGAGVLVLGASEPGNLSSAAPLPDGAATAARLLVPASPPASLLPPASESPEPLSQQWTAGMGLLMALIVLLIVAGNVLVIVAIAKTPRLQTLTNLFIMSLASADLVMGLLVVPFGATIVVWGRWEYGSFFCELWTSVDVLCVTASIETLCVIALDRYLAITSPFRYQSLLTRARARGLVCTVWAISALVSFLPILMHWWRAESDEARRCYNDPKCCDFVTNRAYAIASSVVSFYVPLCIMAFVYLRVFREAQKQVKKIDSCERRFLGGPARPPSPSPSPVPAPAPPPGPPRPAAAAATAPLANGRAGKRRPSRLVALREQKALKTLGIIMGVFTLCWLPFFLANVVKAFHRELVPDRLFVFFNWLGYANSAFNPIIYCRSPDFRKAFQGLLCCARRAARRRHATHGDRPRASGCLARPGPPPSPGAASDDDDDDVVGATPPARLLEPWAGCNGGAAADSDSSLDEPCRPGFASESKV
UniProt P30530, sequence (whole entry, looked up): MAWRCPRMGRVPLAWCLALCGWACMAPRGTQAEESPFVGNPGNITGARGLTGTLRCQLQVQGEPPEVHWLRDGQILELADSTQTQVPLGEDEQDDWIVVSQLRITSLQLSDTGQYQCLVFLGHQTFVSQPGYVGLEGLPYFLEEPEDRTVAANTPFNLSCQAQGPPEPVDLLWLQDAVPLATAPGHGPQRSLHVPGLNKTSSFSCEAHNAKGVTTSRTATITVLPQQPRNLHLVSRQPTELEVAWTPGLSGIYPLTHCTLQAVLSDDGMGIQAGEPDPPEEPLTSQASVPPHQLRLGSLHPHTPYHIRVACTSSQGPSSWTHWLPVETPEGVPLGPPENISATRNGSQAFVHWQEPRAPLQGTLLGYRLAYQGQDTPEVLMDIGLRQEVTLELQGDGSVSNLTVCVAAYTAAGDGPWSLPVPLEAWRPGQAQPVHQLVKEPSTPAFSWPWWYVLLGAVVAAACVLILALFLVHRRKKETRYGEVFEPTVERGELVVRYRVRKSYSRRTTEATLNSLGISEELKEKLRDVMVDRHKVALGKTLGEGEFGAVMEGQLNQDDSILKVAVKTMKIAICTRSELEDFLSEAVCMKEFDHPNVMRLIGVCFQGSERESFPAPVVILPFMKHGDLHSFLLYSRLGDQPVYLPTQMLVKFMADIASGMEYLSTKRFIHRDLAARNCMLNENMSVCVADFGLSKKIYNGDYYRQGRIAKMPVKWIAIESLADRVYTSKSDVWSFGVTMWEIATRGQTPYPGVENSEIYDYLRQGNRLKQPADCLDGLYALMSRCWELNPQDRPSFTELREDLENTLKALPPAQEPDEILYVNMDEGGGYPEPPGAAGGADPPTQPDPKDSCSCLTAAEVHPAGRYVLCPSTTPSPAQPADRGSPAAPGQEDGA
UniProt P49759, sequence (whole entry, looked up): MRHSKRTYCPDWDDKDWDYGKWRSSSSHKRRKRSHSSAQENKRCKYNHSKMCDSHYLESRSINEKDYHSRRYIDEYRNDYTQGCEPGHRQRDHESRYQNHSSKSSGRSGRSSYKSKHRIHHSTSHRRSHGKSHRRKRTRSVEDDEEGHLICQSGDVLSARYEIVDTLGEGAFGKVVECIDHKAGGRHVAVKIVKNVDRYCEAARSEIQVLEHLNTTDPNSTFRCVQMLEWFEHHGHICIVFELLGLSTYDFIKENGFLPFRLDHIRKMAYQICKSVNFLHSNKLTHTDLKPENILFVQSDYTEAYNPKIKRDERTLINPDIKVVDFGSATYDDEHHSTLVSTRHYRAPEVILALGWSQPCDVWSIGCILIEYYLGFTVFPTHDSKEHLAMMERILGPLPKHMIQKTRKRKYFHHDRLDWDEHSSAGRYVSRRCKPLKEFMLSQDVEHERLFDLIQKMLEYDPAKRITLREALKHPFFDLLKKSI

The inhibition of `CN(C)[C@H]1C[C@@]23CC[C@@]4(O2)C(=CC[C@]2(C)[C@@H](c5ccc6ccncc6c5)CC[C@H]24)C=C3[C@@H](O)[C@@H]1O` is reported as 0.1% (Phosphatidylinositol 4,5-bisphosphate 3-kinase catalytic subunit beta isoform (PIK3CB, Homo sapiens, UniProt P42338); ATP probe labelling, inhibitor, KiNativ profiling; 0.1 µM).
With `O=C1NC(=O)c2c1c1cc(F)c[n+]3c1c1c2c2cc(O)ccc2[n]1[Ru-4]312([N]=C=S)[S+]3CC[S+]1CC[S+]2CC3` (stereo not shown) the remaining activity was 55% (Dual specificity mitogen-activated protein kinase kinase 4 (Map2k4, Mus musculus, UniProt P47809); enzyme activity; 100 nM, mouse enzyme, with: 10 µM ATP; reference: untreated).
`COc1ccc(F)cc1S(=O)(=O)Nc1cnc2c(c1)C(=O)NCCO2` has an inhibition of 10% (sodium channel site 2; radioligand binding; 10 µM).
`N#Cc1ccc(N2N=C3c4ccc(C(=O)O)cc4CCC3C2C2CCCC2)cc1Cl` (stereo not shown) gave an inhibition of 9% (N-lysine methyltransferase KMT5A (KMT5A, Homo sapiens, UniProt Q9NQR1); enzyme activity, inhibitor; 10 µM).
With `Cc1ccccc1C=Cc1nnc([C@H]2OCC[C@H]2Cn2ccnc2)o1` the inhibition was 2.9% (Cholinesterase (BCHE, Homo sapiens, UniProt P06276); enzyme activity, inhibitor, Ellman; 10 µM).
`C[C@H](NCc1ccc(-c2ccc(C(F)(F)F)cc2)cc1)C(N)=O` gave an inhibition of 17% (Tyrosine-protein kinase receptor UFO (AXL, Homo sapiens, UniProt P30530); cell-free assay, competition with immobilised ligand; 1 µM).
For `CC[C@H](C)[C@H](NC(=O)[C@H](CO)NC(=O)[C@H](Cc1ccc(O)cc1)NC(=O)[C@H](Cc1ccc(O)cc1)NC(=O)[C@H](CC(N)=O)NC(=O)CNC(=O)[C@H](CO)NC(=O)[C@H](Cc1ccc(O)cc1)NC(=O)[C@H](CO)NC(=O)[C@H](CO)NC(=O)[C@H](CC(N)=O)NC(=O)COCCOCCNC(=O)CN1CCN(CC(=O)O)CCN(CC(=O)O)CCN(CC(=O)O)CC1)C(=O)N[C@@H](CC(C)C)C(N)=O` [copper-64 labelled], the tissue uptake was 13.8 %ID/mL (dynamic PET; KPC mouse Ptf1a-CreER tdTomato, pancreas; intravenous, dose not given, 4.5 min, 84 d after tamoxifen).
For `CC(C)(C)C(=O)OCOP(=O)(OCOC(=O)C(C)(C)C)C1CCCN(O)C1=O` (stereo not shown), the TGI was 8.76 µM (SK-MEL-2).
With `Cc1ccc2c(n1)c(-c1cccc(S(C)(=O)=O)c1)c(C)n2C/C(F)=C/CN` the inhibition was -2% (protein serine/threonine kinase (rat); 10 µM, rat).
For `N[C@H](C(=O)N1CCCC1)C1CCN(c2nccc3c(-c4ncc(Cl)cc4Cl)cccc23)CC1`, the inhibition was 0.8% (Serine/threonine-protein kinase TAO2 (TAOK2, Homo sapiens, UniProt Q9UL54); kinase activity, inhibitor; 10 µM, with: ATP 1 mM).
The inhibition of `Cc1cc(-c2ccc3ccccc3c2)nnc1NCCN1CCN(C)CC1` is reported as 19% (Tyrosine-protein kinase Lck (LCK, Homo sapiens, UniProt P06239); enzyme activity; 10000 nM).
`CCc1nnc(-c2c(OC)cc(-c3cnc4cc(-c5cnn(C)c5)ccn34)cc2OC)o1` gave an inhibition of -2% (Beta-1 adrenergic receptor (ADRB1, Homo sapiens, UniProt P08588); specific binding, agonist, radioligand binding; 10 µM; reference: control specific binding).
With `CC[C@H](C)[C@H](NC(=O)[C@H](CCCCN)NC(=O)CNC(=O)[C@H](CC(C)C)NC(=O)[C@H](Cc1ccccc1)NC(=O)[C@H](CCCCN)NC(=O)[C@H](CO)NC(=O)[C@H](Cc1ccccc1)NC(=O)[C@H](Cc1c[nH]c2ccccc12)NC(=O)[C@H](CCC(N)=O)NC(=O)[C@@H](NC(=O)[C@H](Cc1ccccc1)NC(=O)CCCCCNC(=O)CN1CCN(CC(=O)O)CCN(CC(=O)O)CCN(CC(=O)O)CC1)C(C)C)C(=O)N[C@@H](CCC(=O)O)C(=O)N1CCC[C@H]1C(=O)N[C@@H](CC(=O)O)C(=O)N[C@H](C(=O)N[C@@H](CO)C(=O)N[C@@H](CCC(N)=O)C(=O)N[C@H](C(=O)N[C@@H](CCC(N)=O)C(=O)N[C@@H](CC(=O)O)C(=O)N1CCC[C@H]1C(=O)N[C@@H](CC(N)=O)C(=O)N[C@@H](CC(=O)O)C(=O)N[C@@H](CCC(N)=O)C(=O)N[C@@H](Cc1ccc(O)cc1)C(=O)N[C@@H](CCC(=O)O)C(=O)N1CCC[C@H]1C(=O)N[C@@H](Cc1ccccc1)C(=O)O)C(C)C)C(C)C` [copper-64 labelled] the tissue uptake was 3.15 ± 0.7 %ID/g (C57BL/6 mice, male, naive, brown fat; 24 h).
For `CN(/N=C/c1ccccc1C(=O)O)c1nc(-c2ccccc2Cl)cs1`, the inhibition was -3.25% (Dual specificity protein kinase CLK1 (CLK1, Homo sapiens, UniProt P49759); enzyme activity, inhibitor; 1 µM).
With `CCOC(=O)[C@](CC)(CCCSCCOCCOCCNC(=O)c1ccc(-c2c3ccc(=N)c(S(=O)(=O)O)c-3oc3c(S(=O)(=O)O)c(N)ccc23)c(C(=O)O)c1)NC(=O)c1ccc(C2CC2)c(Cc2ccc(F)cc2)n1` the inhibition was 0% (Type-1 angiotensin II receptor (AGTR1, Homo sapiens, UniProt P30556); ligand displacement, radioligand; 10 µM).
The inhibition of `C=CC(=O)Nc1cc(-c2nn(C3CCC(N4CCN(C(C)=O)CC4)CC3)c3ncnc(N)c23)ccc1Oc1ccccc1` (stereo not shown) is reported as 3.6% (Wee1-like protein kinase (WEE1, Homo sapiens, UniProt P30291); inhibitor, KiNativ profiling; biochemical; 2 µM).
`Cc1sc2c(c1C)C(c1ccc(Cl)cc1)=NC(CC(=O)OC(C)(C)C)c1nnc(C)n1-2` (stereo not shown) has an inhibition of -5% (C-X-C chemokine receptor type 2 (CXCR2, Homo sapiens, UniProt P25025); specific binding, agonist radioligand binding; 1 µM).
The relative abundance of `COc1ccccc1-c1n[nH]c2nc(NC3CCN(C(=O)Cc4ccc(F)cc4F)CC3)ncc12` is reported as 0.93 (bead binding, competition bead pull-down, measured: LINJ.03.0380; Leishmania donovani axenic amastigote extract; 10 µM; reference: vehicle).
`O=C1NC2(CC2)COc2ncc(F)cc2[C@H]2COCCN2c2ccn3ncc1c3n2` — result for “serum LDH activity”: 782 ± 271 U/L (Sprague-Dawley rat, female, serum; oral, 5 mg/kg/day, end of treatment, 4-week subacute toxicity).
The inhibition of `CC(C)C[C@H](NC(=O)[C@H](CCCCN)NC(=O)[C@H](CCCCN)NC(=O)Cc1cccc(CNC(=O)[C@@H](C)NC(=N)N)c1)B(O)O` is reported as 38% (Trypsin (Sus scrofa, UniProt P00761); enzyme activity, inhibitor; 100 µM).
The inhibition of `CC(C)[C@H]1NC(=O)C[C@H]2/C=C/CCSSC[C@@H](NC1=O)C(=O)N[C@H](Cc1cccc3ccccc13)C(=O)NCC(=O)O2` is reported as 3.5% (Tyrosine-protein kinase Fer (FER, Homo sapiens, UniProt P16591); enzyme activity, inhibitor; 10 µM).
The inhibition of `O=C(CN1CN(c2ccccc2)C2(CCN(C(=O)c3cnc4[nH]ncc4c3)CC2)C1=O)NCC(F)(F)F` is reported as < 50% (Mitogen-activated protein kinase kinase kinase 11 (MAP3K11, Homo sapiens, UniProt Q16584); inhibitor; concentration not given).
The inhibition of `O=C(O)c1ccccc1/C=N/Nc1nc(-c2ccccc2Cl)cs1` is reported as -0.65% (RAC-beta serine/threonine-protein kinase (AKT2, Homo sapiens, UniProt P31751); enzyme activity, inhibitor; 1 µM).
`CS(C)(=O)=Nc1ccc(-c2ccc(-c3nc4cc(O[C@@H]5CO[C@H]6[C@@H]5OC[C@H]6O)[nH]c4cc3F)cc2)cc1` has an inhibition of 33% (Serine/threonine-protein kinase STK11 (STK11, Homo sapiens, UniProt Q15831); enzyme activity, inhibitor; 10 µM).
`COc1ccccc1-c1n[nH]c2nc(N[C@H]3CC[C@H](NS(=O)(=O)CC(C)C)CC3)ncc12` gave a relative abundance of 0.92 (bead binding, competition bead pull-down, measured: LINJ.33.2570; Leishmania donovani extract; 10 µM; reference: vehicle).

Excerpt of the above:
The inhibition of `O=C(O)c1ccccc1/C=N/Nc1nc(-c2ccccc2Cl)cs1` is reported as -0.65% (RAC-beta serine/threonine-protein kinase (AKT2, Homo sapiens, UniProt P31751); enzyme activity, inhibitor; 1 µM).
`O=C1NC2(CC2)COc2ncc(F)cc2[C@H]2COCCN2c2ccn3ncc1c3n2` — result for “serum LDH activity”: 782 ± 271 U/L (Sprague-Dawley rat, female, serum; oral, 5 mg/kg/day, end of treatment, 4-week subacute toxicity).
